Measurements of several laboratories.
Every numbered part comes from another study and shows a few of its results, in no order.

Series 1
Cell line: yeast with cyclin E2-Cln2 chimera
Observed: cell growth
Action: binder
Technique: competitive growth deep sequencing
Form: peptide
Tested at: concentration not given
Notes: peptide tiling library
Reading: direction not given
| Molecule | growth enrichment score |
| --- | --- |
| SPPRGRRLFPPGPAGF | -0.744 |
| KVKRRLDLDIDGLQKE | 1.35 |
| KSKHEEEEWTDDDLVE | 0.639 |
| RQVRRDLFAF | 0.9 |
| NEGVSNAVRRSLYIRD | -0.232 |
| PFSENVSAVQKLDFSD | 0.583 |
| LKGRRLVFDN | -0.529 |
| DSGFCLDSPGPLDSKE | -0.0902 |
| TTTTSPRTPPPLTVQD | 0.335 |
| SMTDFYHSKRRLIFSK | -0.607 |
| NSMKELNFSHLPSNSV | 0.266 |
| RRRIKLPESDSSED | 1.15 |
| RVSGLLSWTLSRVLWL | -0.0181 |

Series 2
Target: RNA binding protein fox-1 homolog 2, RRM domain, GST-SBP tag (RBFOX2, Homo sapiens, UniProt O43251-10, residues 100-194)
Technique: RNA Bind-n-Seq
Form: RNA
Matrix: in vitro
Tested at: 365 nM
Notes: natural RNA segment, single round, ends assumed
Relative to: no-protein control
Reading: higher = stronger binding
Target sequence (chain): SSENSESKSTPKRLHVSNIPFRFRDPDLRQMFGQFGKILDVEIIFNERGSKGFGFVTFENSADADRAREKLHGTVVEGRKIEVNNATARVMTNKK
| Strand | RBNS enrichment (R) |
| --- | --- |
| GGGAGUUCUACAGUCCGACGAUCUAUACAAAGAAACUACAUAUAGUUUUAUGAUUUAAGGUACUUAGAAAUGUUUAUGGUUAACAUUGUAUAUAUUUACAUAAAAUUUAAAGGUUUUGUAUAUGGGAUUUUCUUGGAAUUCUCGGGUGCCAA | 0.962 |
| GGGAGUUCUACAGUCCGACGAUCUUUUAAGUUAAGGGAAAAAGUAUAUUUUUGUUAAAACUUUCAUGAAAAAAUAAAAUAUAUCCUUGUCGAAUUCUGUAUCUAUGAUAACAAAUUCUUGUACUUUAAGAAAAUGGAAUUCUCGGGUGCCAA | 0.7 |
| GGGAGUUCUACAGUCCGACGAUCCGCCGCACGCCAGCCCGCUUUGGACUGUGAGCUGAGGCUGUCCCAGGGGAGGAUGGUGGCCACGUACUAAGAUCUUGGCUCUCCAGCCCGUGUUUCCUAAGGACUCCGCAUGGAAUUCUCGGGUGCCAA | 1.82 |
| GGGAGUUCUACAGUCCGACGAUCGGACUGAACAGCGGCGGCUGUCCCUGUGCAUCCUUUGAUUACUCUCAUGCUGCAUUUACUGUUUACAUUUGUUUUAUUGUACAUAGGUUUGUAAACAUUAUUGCCUGAGAUGGAAUUCUCGGGUGCCAA | 0.389 |
| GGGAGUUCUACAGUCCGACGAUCCCAGGUAGGUGUUCCUCGAGUGCCAACGGCGGGGCCUGCCCACCCCUGUCUUCCUUUCUGGGCAAGCUCCCAUUUUAACUUUUCCCUGUUAAAAAUUGUACUGAUGUUUUUGGAAUUCUCGGGUGCCAA | 0.935 |
| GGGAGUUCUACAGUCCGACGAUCUCAGAGAAACAAGAGCACAAGUAAAUGAACACAAAUCCUUCCUUAGGACCACUGCACCACAGGCCUUGUCCAGUGUUCUAUCCCCUCUGAAGAGUCAGGCGAGGCCUGAUUGGAAUUCUCGGGUGCCAA | 0.709 |
| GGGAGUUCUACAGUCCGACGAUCCCCACCUCCAUGGUGGCCCAGGCUGCAGGGCUCACGGUGGGCCCACGGUGGAGGCCUCAGGCAGCUUUCUCUCCAGCUACCCAUUGGCUUAGGACACACAGAUAAAGUAGUGGAAUUCUCGGGUGCCAA | 0.411 |
| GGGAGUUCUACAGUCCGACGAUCGGAGUUUCAUGUUUCUAAAGCUUUAAAAAGUAUCAAAAUCAUUCUUUGGAAAUAAUGACAUAAUAAGAAUUAGACUAUUUCUCAACUUUCUUAAGCGACUACAUCAUAUUUGGAAUUCUCGGGUGCCAA | 0.518 |
| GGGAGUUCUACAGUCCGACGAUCUGGGACACCAGUCUUCGGUGUGUGGAAUGUGGUAUUUUCCCGCGUGGAGGUGUGCUUUCUCACAACGGGGUGUGUUUUCCCAUGUGCAGGGUGAGGUUUUUUUUUGCCACUGGAAUUCUCGGGUGCCAA | 0.483 |
| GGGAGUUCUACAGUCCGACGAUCGCUUUACUGAAGAUCUGUUUCUUUUGUACUCUGACUACACAUGACCCAAUUAUAUUCUAAUGUGAAAAUAUUAGCAUAAAUAGGUGAAAUUGCUCUUCUGAAAAUUGUGUUGGAAUUCUCGGGUGCCAA | 0.319 |
| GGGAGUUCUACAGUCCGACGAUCUUUGUUUUUGUUUUUUAAGGGAAACGAAAUGGAAUUCGAAGGGACCUUUUCACUAACCCCACUUCUGUGUGUUCUGCAUGGCGCCUGCCCCAGGGCAUCUGCCAACUCCAUGGAAUUCUCGGGUGCCAA | 0.548 |
| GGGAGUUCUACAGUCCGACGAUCUGAUGAAGUGAAAAUGUAUAUCUGACUAGUGGGAAACUUCAUGGGUUUCCUCAUCUGUCAUGUCGAUGAUUAUAUAUGGAUACAUUUACAAAAAUAAAAAGCGGGAAUUUUGGAAUUCUCGGGUGCCAA | 0.694 |

Series 3
Target: Prothrombin, mature alpha-thrombin (F2, Homo sapiens, UniProt P00734)
Technique: aptamer microarray, sandwich
Form: DNA with 2'F-ANA
Matrix: in vitro
Tested at: 200 nM
Notes: whole 15-mer aptamer, many near background
Together with: Cy3 exosite-II aptamer, 400 nM
Reading: higher = stronger binding
Strand: GGTTGGTGTGGTTGG
| Modification | mean fluorescence intensity |
| --- | --- |
| 2'F-ANA at 4 7 8 9 10 12 13 14 15 | 84.9 a.u. |
| 2'F-ANA at 3 7 8 9 11 | 1250 a.u. |
| 2'F-ANA at 1 3 4 6 7 8 11 13 14 | 70.3 a.u. |
| 2'F-ANA at 4 6 7 9 10 11 13 14 15 | 90.4 a.u. |
| 2'F-ANA at 1 2 5 9 12 13 15 | 76.8 a.u. |
| 2'F-ANA at 1 2 4 7 12 13 14 15 | 62.4 a.u. |
| 2'F-ANA at 2 5 6 7 9 | 71.4 a.u. |
| 2'F-ANA at 1 2 3 4 5 6 8 9 10 12 15 | 84.1 a.u. |
| 2'F-ANA at 2 4 5 6 10 11 12 13 14 | 47 a.u. |
| 2'F-ANA at 1 2 3 4 5 6 7 8 10 11 13 14 15 | 45.8 a.u. |
| 2'F-ANA at 2 5 7 10 11 12 15 | 50.5 a.u. |
| 2'F-ANA at 5 6 9 13 14 15 | 108 a.u. |
| 2'F-ANA at 1 2 3 4 6 7 9 10 11 13 14 | 49.7 a.u. |
| 2'F-ANA at 1 2 3 5 7 9 11 12 13 15 | 67.5 a.u. |
| 2'F-ANA at 1 2 3 5 8 10 11 13 14 15 | 48.1 a.u. |
| 2'F-ANA at 3 5 9 11 13 | 84.1 a.u. |

Series 4
Target: Sal-like protein 4, full length isoform A (SALL4, Homo sapiens, UniProt Q9UJQ4, residues 1-1053)
Chain of UniProt Q9UJQ4 (whole entry, looked up): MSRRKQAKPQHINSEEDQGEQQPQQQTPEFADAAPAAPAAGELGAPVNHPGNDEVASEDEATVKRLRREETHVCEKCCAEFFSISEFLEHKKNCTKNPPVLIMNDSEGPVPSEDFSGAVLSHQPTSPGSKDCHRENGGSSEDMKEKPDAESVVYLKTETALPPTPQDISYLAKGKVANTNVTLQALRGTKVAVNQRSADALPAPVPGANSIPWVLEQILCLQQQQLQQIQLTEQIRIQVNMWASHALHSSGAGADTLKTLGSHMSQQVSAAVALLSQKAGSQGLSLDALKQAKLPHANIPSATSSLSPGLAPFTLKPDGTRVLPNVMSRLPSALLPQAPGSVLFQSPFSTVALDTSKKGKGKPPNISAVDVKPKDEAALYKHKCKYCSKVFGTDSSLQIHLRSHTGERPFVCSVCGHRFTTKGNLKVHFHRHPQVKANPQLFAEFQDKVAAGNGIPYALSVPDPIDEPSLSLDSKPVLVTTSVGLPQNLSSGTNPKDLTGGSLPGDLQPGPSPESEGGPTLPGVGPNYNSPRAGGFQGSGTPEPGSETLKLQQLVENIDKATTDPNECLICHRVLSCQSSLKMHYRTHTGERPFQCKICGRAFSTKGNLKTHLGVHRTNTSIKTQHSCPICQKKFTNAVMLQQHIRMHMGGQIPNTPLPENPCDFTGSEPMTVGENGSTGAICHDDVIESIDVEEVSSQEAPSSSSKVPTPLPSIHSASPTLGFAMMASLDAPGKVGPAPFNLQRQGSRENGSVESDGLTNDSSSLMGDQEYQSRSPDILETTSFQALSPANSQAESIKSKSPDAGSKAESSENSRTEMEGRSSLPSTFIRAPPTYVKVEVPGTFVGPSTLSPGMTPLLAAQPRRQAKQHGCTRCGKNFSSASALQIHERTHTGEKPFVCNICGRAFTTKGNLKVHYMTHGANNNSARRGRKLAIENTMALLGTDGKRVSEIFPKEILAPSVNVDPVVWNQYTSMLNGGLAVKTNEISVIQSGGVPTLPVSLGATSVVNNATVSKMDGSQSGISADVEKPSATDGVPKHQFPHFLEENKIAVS
Technique: universal PBM
Form: double-stranded DNA, one strand shown
Matrix: in vitro
Tested at: 600 nM
Notes: 8-mer, flanks averaged, mean of replicates
Reading: higher = stronger binding
| Strand | E-score |
| --- | --- |
| CCGGGCGC | -0.406 |
| CCTGTACA | 0.103 |
| ACACGACG | -0.0144 |
| CTCTTCTA | -0.0382 |
| CCGCTCCA | -0.218 |
| GAAACTGC | -0.171 |
| CGGTCACG | -0.247 |
| CATCTCCC | -0.156 |
| GCACAACC | -0.228 |
| GCAGGAGA | -0.0689 |
| ACCACCGA | -0.222 |
| CCAGCCAA | -0.15 |
| AGTGAAGC | -0.0154 |
| CGCTGTCA | -0.335 |
| CCATGCTC | -0.215 |
| GTTATGGA | 0.301 |
| CTCAAGAA | 0.107 |
| ATCCATTA | 0.167 |
| AAAATTAC | 0.359 |
| AAGGGCTA | -0.118 |
| ACAGCACT | -0.0299 |
| AGATCCGC | -0.198 |
| CAACCGTG | -0.185 |

Excerpt of the above (series 4):
| Strand | E-score |
| --- | --- |
| CCGGGCGC | -0.406 |
| CCTGTACA | 0.103 |
| ACACGACG | -0.0144 |
